Experimental data of several laboratories.
Numbered parts are unrelated; each lists some results of a single study. Values joined by “and” are separate records of one study, mostly repeats; a detail may differ.
Sequence of UniProt P08581 (whole entry, looked up): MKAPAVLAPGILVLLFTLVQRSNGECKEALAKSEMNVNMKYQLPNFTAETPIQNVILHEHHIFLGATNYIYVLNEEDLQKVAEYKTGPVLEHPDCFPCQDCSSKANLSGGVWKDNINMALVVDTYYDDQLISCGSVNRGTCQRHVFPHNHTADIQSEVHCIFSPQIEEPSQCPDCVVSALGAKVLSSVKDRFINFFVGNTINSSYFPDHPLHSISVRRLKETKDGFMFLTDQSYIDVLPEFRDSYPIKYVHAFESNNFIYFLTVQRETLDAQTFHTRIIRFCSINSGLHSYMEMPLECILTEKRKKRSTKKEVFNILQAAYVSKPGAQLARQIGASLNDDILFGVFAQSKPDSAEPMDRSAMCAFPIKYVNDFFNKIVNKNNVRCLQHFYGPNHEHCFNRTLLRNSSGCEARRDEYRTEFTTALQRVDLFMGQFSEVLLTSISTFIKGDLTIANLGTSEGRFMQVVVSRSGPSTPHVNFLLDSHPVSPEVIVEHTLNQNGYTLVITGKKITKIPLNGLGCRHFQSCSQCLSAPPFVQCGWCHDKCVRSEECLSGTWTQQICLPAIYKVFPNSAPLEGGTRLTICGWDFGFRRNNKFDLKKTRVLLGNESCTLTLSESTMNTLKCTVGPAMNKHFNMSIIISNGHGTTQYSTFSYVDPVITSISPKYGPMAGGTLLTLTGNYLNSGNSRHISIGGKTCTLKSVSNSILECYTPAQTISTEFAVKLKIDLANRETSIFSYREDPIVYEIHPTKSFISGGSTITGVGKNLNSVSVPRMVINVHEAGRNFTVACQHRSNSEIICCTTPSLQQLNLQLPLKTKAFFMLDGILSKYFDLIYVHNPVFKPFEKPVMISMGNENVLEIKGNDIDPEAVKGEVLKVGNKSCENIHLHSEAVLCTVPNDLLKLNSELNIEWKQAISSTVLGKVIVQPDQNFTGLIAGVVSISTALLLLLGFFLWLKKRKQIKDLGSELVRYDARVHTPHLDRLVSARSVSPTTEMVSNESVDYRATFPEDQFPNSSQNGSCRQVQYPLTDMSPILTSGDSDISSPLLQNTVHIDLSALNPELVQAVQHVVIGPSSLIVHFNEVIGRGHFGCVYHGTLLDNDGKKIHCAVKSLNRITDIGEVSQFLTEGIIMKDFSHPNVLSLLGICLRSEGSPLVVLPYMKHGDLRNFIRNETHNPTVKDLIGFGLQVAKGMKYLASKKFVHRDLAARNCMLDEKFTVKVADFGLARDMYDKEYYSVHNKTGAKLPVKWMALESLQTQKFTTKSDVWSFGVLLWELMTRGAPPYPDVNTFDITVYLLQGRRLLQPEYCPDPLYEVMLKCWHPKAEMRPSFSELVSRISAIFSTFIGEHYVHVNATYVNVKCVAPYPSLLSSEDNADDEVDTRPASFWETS

Series 1
Species: mouse
Matrix: microsomes or S9
Tested at: 2 µM
Time: 0.5 h
| Structure (SMILES) | remaining compound [%] |
| --- | --- |
| O=c1c2ccc(F)cc2ncn1C/C=C/c1ccccc1 | 69.7 |
| COc1ccc(C(N)=O)cc1NC1C2CCOC2C12CCC2 (stereo not drawn) | 47.3 |
| OC1(Cc2nc(-c3cnccn3)no2)CCCCC1 | 55.4 |
| COc1cc(=O)n(C)cc1C(=O)NC(c1cccnc1)C1CCOCC1 (stereo not drawn) | 84.5 |
| O=C(O)CCCCC/N=C1\CCc2ccccc2N1 | > 99.9 |
| C/C=C/C=C/C(=O)N1CCN(C(C)C(N)=O)CC1 (stereo not drawn) | 70.5 |
| CCN(CCCN1C(=O)CCC1(C)C(=O)NCCC(C)C)c1cccc(C)c1 (stereo not drawn) | 0.746 |
| COc1cc(=O)[nH]cc1C(=O)N1CCC(OCC2CCCC2)CC1 | 74.5 |

Series 2
SMILES: CN(C(=O)c1cnn2cccnc12)c1cc2c(cc1N1CCOCC1)C(=O)N(C[C@@H](F)C(C)(C)O)C2
JAK2: Tyrosine-protein kinase JAK2 (JAK2, Homo sapiens, UniProt O60674)
Sequence of UniProt O60674 (whole entry, looked up): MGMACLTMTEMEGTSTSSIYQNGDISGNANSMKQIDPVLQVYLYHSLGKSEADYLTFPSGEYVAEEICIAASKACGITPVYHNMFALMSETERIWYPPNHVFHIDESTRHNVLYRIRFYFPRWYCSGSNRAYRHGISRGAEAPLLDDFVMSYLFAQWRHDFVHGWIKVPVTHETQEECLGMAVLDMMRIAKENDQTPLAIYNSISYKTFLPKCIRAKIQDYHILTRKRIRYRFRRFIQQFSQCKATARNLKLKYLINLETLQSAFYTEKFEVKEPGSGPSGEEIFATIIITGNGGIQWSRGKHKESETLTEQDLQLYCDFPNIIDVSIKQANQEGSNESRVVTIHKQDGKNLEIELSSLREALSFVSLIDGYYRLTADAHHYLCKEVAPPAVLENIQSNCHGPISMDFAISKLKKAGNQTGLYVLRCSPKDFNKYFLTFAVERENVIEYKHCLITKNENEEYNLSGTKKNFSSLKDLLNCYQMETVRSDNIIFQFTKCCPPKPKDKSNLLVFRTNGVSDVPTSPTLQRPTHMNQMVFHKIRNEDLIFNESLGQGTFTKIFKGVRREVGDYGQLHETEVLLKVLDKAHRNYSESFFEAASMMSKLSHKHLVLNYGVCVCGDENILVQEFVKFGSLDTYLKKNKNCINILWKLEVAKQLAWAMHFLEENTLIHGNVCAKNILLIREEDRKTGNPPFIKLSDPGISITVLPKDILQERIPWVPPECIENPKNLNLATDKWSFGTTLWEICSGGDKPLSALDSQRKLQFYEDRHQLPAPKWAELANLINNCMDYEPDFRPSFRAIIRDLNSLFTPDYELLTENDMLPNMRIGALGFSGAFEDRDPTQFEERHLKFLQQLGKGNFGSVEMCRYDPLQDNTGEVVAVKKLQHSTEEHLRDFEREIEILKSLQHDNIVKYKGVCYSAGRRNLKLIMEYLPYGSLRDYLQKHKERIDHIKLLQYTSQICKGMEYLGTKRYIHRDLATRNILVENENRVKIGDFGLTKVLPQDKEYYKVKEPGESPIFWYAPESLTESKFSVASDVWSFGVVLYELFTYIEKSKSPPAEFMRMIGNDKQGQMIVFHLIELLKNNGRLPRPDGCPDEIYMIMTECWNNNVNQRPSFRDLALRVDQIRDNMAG
JAK1: Tyrosine-protein kinase JAK1 (JAK1, Homo sapiens, UniProt P23458)
Sequence of UniProt P23458 (whole entry, looked up): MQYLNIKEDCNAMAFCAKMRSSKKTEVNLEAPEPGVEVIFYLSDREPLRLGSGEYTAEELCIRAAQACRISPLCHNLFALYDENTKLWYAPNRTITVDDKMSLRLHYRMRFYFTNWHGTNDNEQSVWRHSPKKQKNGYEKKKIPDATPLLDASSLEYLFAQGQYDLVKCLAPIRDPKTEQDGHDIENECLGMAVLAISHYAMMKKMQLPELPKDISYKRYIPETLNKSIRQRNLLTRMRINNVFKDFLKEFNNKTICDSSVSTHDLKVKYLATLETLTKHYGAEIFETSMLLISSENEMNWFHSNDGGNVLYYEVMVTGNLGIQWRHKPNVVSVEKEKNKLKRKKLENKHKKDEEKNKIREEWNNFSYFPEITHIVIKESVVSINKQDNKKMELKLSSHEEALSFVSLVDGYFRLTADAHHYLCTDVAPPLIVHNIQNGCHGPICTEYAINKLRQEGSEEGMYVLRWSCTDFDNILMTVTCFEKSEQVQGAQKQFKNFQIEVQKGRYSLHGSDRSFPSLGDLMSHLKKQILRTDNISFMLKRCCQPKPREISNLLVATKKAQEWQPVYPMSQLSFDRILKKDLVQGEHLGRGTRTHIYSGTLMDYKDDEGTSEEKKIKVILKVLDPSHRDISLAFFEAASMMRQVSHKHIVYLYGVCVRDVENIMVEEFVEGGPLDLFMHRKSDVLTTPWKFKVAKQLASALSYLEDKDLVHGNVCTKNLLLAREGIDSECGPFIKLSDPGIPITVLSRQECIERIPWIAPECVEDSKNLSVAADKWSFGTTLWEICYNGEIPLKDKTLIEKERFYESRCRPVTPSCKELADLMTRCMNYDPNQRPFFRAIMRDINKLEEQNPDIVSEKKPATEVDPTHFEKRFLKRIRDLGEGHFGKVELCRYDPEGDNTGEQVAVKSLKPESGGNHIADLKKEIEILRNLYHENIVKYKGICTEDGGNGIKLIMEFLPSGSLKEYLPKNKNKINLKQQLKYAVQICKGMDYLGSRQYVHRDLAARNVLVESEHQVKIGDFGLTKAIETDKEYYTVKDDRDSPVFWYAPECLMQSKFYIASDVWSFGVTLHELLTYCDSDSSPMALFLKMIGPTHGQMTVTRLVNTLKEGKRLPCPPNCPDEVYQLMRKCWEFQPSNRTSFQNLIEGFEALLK
| target | assay | system | EC50 |
| --- | --- | --- | --- |
| JAK2 | target engagement, NanoBRET | live cells | > 50 µM |
| JAK1 | target engagement, NanoBRET | live cells | > 50 µM |
| JAK2 | target engagement in cells, BRET | – | > 50 µM |
| FLT3 (Homo sapiens, UniProt P36888) | target engagement, NanoBRET | live cells | 2.7 µM and 2.68 µM and 5.42 µM |
| JAK1 | target engagement in cells, BRET | – | > 50 µM |
| LRRK2 (Homo sapiens, UniProt Q5S007) | target engagement, NanoBRET | live cells | > 50 µM |

Series 3
Cell line: mouse MPNST tumor cells
Technique: high-content nuclear imaging
Refers to: cell number
Tested at: 10 µM
Time: 12 h
Notes: mean of 2 replicates
Relative to: plate mean
Reading: higher = more cells
| Structure (SMILES) | nuclei count |
| --- | --- |
| CN1CC[C@@H](NC(=O)Nc2ccc(C#N)cc2)C[C@@H]1c1nc2ccccc2[nH]1 | 3.57 z-score |
| CC1(C)O[C@@H]2C[C@H]3[C@@H]4C[C@H](F)C5=CC(=O)CC[C@]5(C)[C@H]4[C@@H](O)C[C@]3(C)[C@]2(C(=O)CO)O1 | 2.55 z-score |
| Cc1oncc1C(=O)Nc1ccc(C(F)(F)F)cc1 | -0.835 z-score and -0.764 z-score |
| CC(=O)Nc1ccc(C(=O)Nc2ccccc2N)cc1 | 1.36 z-score |
| O=[N+]([O-])c1c(Nc2cc(F)cc(Cl)c2)ccc2nonc12 | -0.876 z-score |

Series 4
Compound: Cc1nc(Nc2ncc(C(=O)Nc3c(C)cccc3Cl)s2)cc(N2CCN(CCO)CC2)n1
Mode: inhibitor
| target | conditions | inhibition |
| --- | --- | --- |
| TNK1 (Homo sapiens, UniProt Q13470) | 10 µM | < 50% |
| PAK3 (Homo sapiens, UniProt O75914) | 10 µM | < 50% |
| PRKG2 (Homo sapiens, UniProt Q13237) | 10 µM | < 50% |
| CHEK1 (Homo sapiens, UniProt O14757) | 10 µM | < 50% |
| MET (Homo sapiens, UniProt P08581) | 1 µM | < 50% |
